Assay results from different studies.
Lines come from different studies, so protocols differ. “And” joins repeats or separate records; there may be more than shown. ± marks the error that the study gave.
serine/threonine phosphatase Stp1: serine/threonine phosphatase Stp1 (Staphylococcus aureus, UniProt A0A0H2XF73)
SIRT2: NAD-dependent protein deacetylase sirtuin-2 (SIRT2, Homo sapiens, UniProt Q8IXJ6)
UCHL1: Ubiquitin carboxyl-terminal hydrolase isozyme L1 (UCHL1, Homo sapiens, UniProt P09936)
BRD4 BD2: Bromodomain-containing protein 4, BD2 (BRD4, Homo sapiens, UniProt O60885)
Histone acetyltransferase RTT109 with Vps75: Histone acetyltransferase RTT109, with Vps75 (Saccharomyces cerevisiae, UniProt Q07794)
BRD4 BD1: Bromodomain-containing protein 4, BD1 (BRD4, Homo sapiens, UniProt O60885)
CYP2C8: Cytochrome P450 2C8 (CYP2C8, Homo sapiens, UniProt P10632)
CRBN with DDB1: Protein cereblon, with DDB1 (CRBN, Homo sapiens, UniProt Q96SW2)

Structure (SMILES)	tested on	assay	test system	setting	scale	quantity	value
CCCC(C)C(=O)Nc1ccc(Cl)c(Cl)c1 (stereo not shown)	serine/threonine phosphatase Stp1	phosphatase activity, inhibitor				IC50	> 384 µM
Cc1cc(O)cc(Nc2nnc(-c3n[nH]c4ccc(C)cc34)s2)c1	thymidine phosphorylase	enzyme activity, inhibitor, spectrophotometric		pH 7.5, 25 °C		IC50	10.6 ± 1.79 µM
CC(C)CNC(=O)c1cccn(-c2ccc(NC(=O)c3ccc(Br)cc3)cc2)c1=O	Catenin beta-1, with BCL9 HD2 (CTNNB1, Homo sapiens, UniProt P35222)	BCL9 binding, inhibitor, AlphaScreen				IC50	26.3 µM
Cc1ccc(S(=O)(=O)/C=C/C#N)cc1	OTU domain-containing protein 7B (OTUD7B, Homo sapiens, UniProt Q6GQQ9)	deubiquitinase activity, inhibitor, MALDI-TOF DUB		30 °C, 35 min pre-incubation		IC50	1.17 µM
CCCCCCCCCCCCNC(=S)NCCCC[C@H](NC(=O)OCc1ccccc1)C(=O)N[C@@H](Cc1c[nH]c2ccccc12)C(=O)N[C@@H](CCC(=O)O)C(N)=O	SIRT2	enzyme activity, inhibitor				IC50	9.6 ± 1.1 µM
N#CC(=Cc1cccc(Cl)c1Cl)C(=O)NCc1ccco1	UCHL1	inhibitor, ubiquitin-rhodamine cleavage		2 h preincubation		IC50	> 200 µM
C=CC(C)(C)c1cc(/C=C/C(=O)c2ccc(O)cc2)c(OC)cc1O	Histone-arginine methyltransferase CARM1 (Mus musculus, UniProt Q9WVG6)	methyltransferase activity, inhibitor		added: histone H3 substrate, [3H]AdoMet		IC50	69 µM and ~60 µM
COc1ccc(-c2ccc3ncc4c(c3c2)n([C@@H]2CCN(C)CC2(F)F)c(=O)n4C)cn1	Dual specificity protein kinase CLK1 (CLK1, Homo sapiens, UniProt P49759)	enzyme activity, inhibitor				IC50	0.44 ± 0.0075 µM
C=C(NC(=O)[C@H](CCCCNC(=S)CCCCCCCCCCCCC)NS(C)(=O)=O)C(=O)N[C@@H](CCCNC(=N)N)C(N)=O	SIRT2	enzyme activity, inhibitor				IC50	0.14 ± 0.03 µM
CC[C@@H]1[C@H](F)C(=O)N[C@@H]1COc1nccc2cc(C(N)=O)c(OC)cc12	Serine/threonine-protein kinase 38-like (STK38L, Homo sapiens, UniProt Q9Y2H1)	ATP-site probe binding, ActivX profiling	THP-1 cell lysate	Lys2 site		IC50	1.5 µM
CCOC(=O)[C@H]1O[C@@H]1C(=O)N[C@@H](CC(C)C)C(=O)NCCC(C)C	Calpain-1 catalytic subunit (CAPN1, Homo sapiens, UniProt P07384)					IC50	0.35 ± 0.065 µM
CN(C)C(=O)c1cc2cnc(Nc3cccc(-c4cccc5c(=O)cc(N6CCOCC6)oc45)c3)nc2n1C1CCCC1	BRD4 BD2	inhibitor				IC50	> 10 µM
O=C1CCC(=O)N1c1ccc(Br)cc1	Histone acetyltransferase RTT109 with Vps75	enzyme activity, inhibitor, HTS, CPM-based, dose response				IC50	> 125 µM
O=c1nc(SCc2cc(F)cc(C(F)(F)F)c2)nc(SCc2ccc3nc(Cl)ccc3c2)[nH]1	DNA topoisomerase 2-alpha (TOP2A, Homo sapiens, UniProt P11388)	ATPase activity, ATP-competitive inhibitor		added: ATP 0.75 mM		IC50	28 µM
COc1cccc(NC(=O)C(C#N)=Cc2cccc(Cl)c2Cl)c1	UCHL1	inhibitor, ubiquitin-rhodamine cleavage		2 h preincubation		IC50	> 200 µM
O=C1[C@H]2CCCN2[C@H](c2cccc3c2OCO3)N1c1ccc(Cl)c(Cl)c1 (racemic)	mutant huntingtin exon 1 and calmodulin	protein binding, inhibitor, AlphaScreen				IC50	4.3 µM
CN(C)C(=O)c1cc2cnc(Nc3ccc(-c4cccc5c(=O)cc(N6CCNCC6)oc45)cc3)nc2n1C1CCCC1	BRD4 BD1	inhibitor				IC50	0.002 µM
O=S1(=O)CC(c2ccccc2)c2ccccc21 (stereo not shown)	Histone acetyltransferase RTT109 with Vps75	enzyme activity, inhibitor, HTS, CPM-based, dose response				IC50	> 125 µM
CCN(c1ccccc1)S(=O)(=O)c1ccc(Cl)c(C(=O)Nc2ccccc2N2C(=O)CC(C)(C)C2=O)c1	N-myristoyltransferase (Cryptosporidium parvum, UniProt Q5CV46)	enzyme activity, inhibitor				IC50	> 125 µM
COc1cc(C(=O)NS(=O)(=O)c2ccccc2C)ccc1Cc1cn(C)c2ccc(NC(=O)OC3CCCC3)cc12	LRRC8A/LRRC8C (Homo sapiens, UniProt Q8IWT6+Q8TDW0, Y124F/Y126F)	ion current, inhibitor, whole-cell patch clamp	HCT116 LRRC8-/- transfected	at +100 mV		IC50	19.6 µM

Structure (SMILES)	tested on	assay	test system	setting	scale	quantity	value
C/C(=N\NC(=O)c1ccc(Cl)cc1)c1ccccn1	Trypanosoma cruzi	reporter translation, Renilla luciferase mRNA translation	cell-free extract	40 µM	relative to: DMSO	inhibition	-7.6%
Cc1ccc(NS(=O)(=O)C2CS(=O)(=O)c3ccccc32)nc1 (stereo not shown)	Histone acetyltransferase RTT109 with Vps75	enzyme activity, inhibitor, HTS, CPM-based, dose response				IC50	> 125 µM
COc1ccc(-c2cc(=O)c3cccc(Nc4ncc5cc(C(=O)N(C)C)n(C6CCCC6)c5n4)c3o2)cc1	BRD4 BD2	inhibitor				IC50	> 10 µM
Cc1cc([C@@H](C)Nc2ccccc2C(=O)O)c2nc(N3CCC(F)(F)CC3)c(C#N)c(=O)n2c1	Phosphatidylinositol 4,5-bisphosphate 3-kinase catalytic subunit alpha isoform, with p85 alpha (PIK3CA, Homo sapiens, UniProt P42336, E542K)	ADP-Glo		added: ATP 10 µM		IC50	1.45 µM
CC[C@H]1CN2CCc3cc(OC)c(OC)cc3[C@@H]2C[C@@H]1C[C@H]1NCCc2cc(OC)c(OC)cc21	Toxoplasma gondii	parasite growth, luciferase reporter	HFF host cells, tachyzoites	72 h		EC50	0.03 µM
N#Cc1ccc([C@H]2CCc3cncn32)c(F)c1	CYP2C8	inhibitor, measured: paclitaxel 6α-hydroxylation	pooled human liver microsomes	pH 7.4, added: paclitaxel 10 µM		IC50	~100 µM
O=C1CCC(N2Cc3c(CNC(=O)c4ccc(F)cc4)cccc3C2=O)C(=O)N1 (stereo not shown)	CRBN with DDB1	binding, competitor, fluorescence polarization		added: Cy5-labelled lenalidomide probe		IC50	1.3 µM
O=C(NNC1CC(=O)N(c2ccc(Br)cc2)C1=O)c1ccc(-n2cccc2)cc1 (stereo not shown)	Histone acetyltransferase RTT109 with Vps75	enzyme activity, inhibitor, HTS, CPM-based, dose response				IC50	> 125 µM
Cc1ccc2[nH]nc(-c3nnc(Nc4ccc(Cl)c(Cl)c4)s3)c2c1	thymidine phosphorylase	enzyme activity, inhibitor, spectrophotometric		pH 7.5, 25 °C		IC50	8.31 ± 1.25 µM
CCCCSC1CC(=O)N(c2ccc(Br)cc2)C1=O (stereo not shown)	Histone acetyltransferase RTT109 with Vps75	enzyme activity, inhibitor, HTS, CPM-based, dose response				IC50	> 125 µM
Cc1nc(-c2cnc(NC(C)C)n(C)c2=O)ccc1Oc1ccnc(-c2cnn(C)c2)c1	CYP2C8	metabolism-dependent inhibition, inhibitor		30 min preincubation with NADPH		IC50	> 100 µM
COc1ccc(Nc2nnc(S)s2)cc1	Histone acetyltransferase RTT109 with Vps75	enzyme activity, inhibitor, HTS, CPM-based, dose response				IC50	64 ± 9 µM
COc1cc(N2CCN(C)CC2)ccc1Nc1ncc2c(n1)N(C)c1ccccc1C(=O)N2CC(F)(F)F	BRD4 BD1					IC50	> 10 µM
O=C(Nc1cnccc1Cl)N1CCN(Cc2ccc3c(c2)OC(F)(F)O3)CC1	Fatty-acid amide hydrolase 1 (Faah, Rattus norvegicus, UniProt P97612)	enzyme activity, inhibitor	rat brain membranes	5 min preincubation		IC50	0.365 µM
C1CCC(OCCN2CCN(CCOC3CCCCC3)CC2)CC1	Trypanosoma cruzi	reporter translation, Renilla luciferase mRNA translation	cell-free extract	40 µM	relative to: DMSO	inhibition	-6.3%
CN1C(=O)CCC(N2C(=O)c3cccc(NCCCCCCNC(=O)c4ccc(Oc5ccc(Cl)cc5NS(=O)(=O)c5ccc(Cl)c(C(F)(F)F)c5)cc4)c3C2=O)C1=O (stereo not shown)	CRBN with DDB1	binding, HTRF competition				IC50	1.81 µM
O=C1CC(S/C(=N\c2ccccc2)Nc2ccccc2)C(=O)N1c1ccc(Br)cc1 (stereo not shown)	Histone acetyltransferase RTT109 with Vps75	enzyme activity, inhibitor, HTS, CPM-based, dose response				IC50	> 125 µM
C[C@@]12C[C@@]3(O)O[C@@H](O1)[C@]1(COC(=O)c4ccccc4)[C@H]3C[C@@]12O[C@@H]1O[C@H](CO)[C@@H](O)[C@H](O)[C@H]1O	serine/threonine phosphatase Stp1	enzyme activity, inhibitor		added: pNPP		IC50	> 208 µM
CN(C)C(=O)c1cc2cnc(Nc3ccc4c(=O)cc(N5CCOCC5)oc4c3)nc2n1C1CCCC1	BRD4 BD1	inhibitor				IC50	> 10 µM
c1ccc(CNc2nc(-c3ccccc3)no2)cc1	Histone acetyltransferase RTT109 with Vps75	enzyme activity, inhibitor, HTS, CPM-based, dose response				IC50	> 125 µM
